# Experimental data from different studies.
# Compare with care: the assays were run in different laboratories. Several values in a cell are separate wells, animals, samples, runs or records. ± marks the error that the study gave.
Compound,organism,assay,test system,conditions,scale,endpoint,value
Nc1nc(-c2ccccc2)nc2[nH]nc(Nc3ccc(C(F)(F)F)cc3)c12,coxsackievirus B3,,"31-1-93, NMRI mice, CVB3 chronic myocarditis","oral, 100 mg/kg twice daily, day 19, dosed days 1 to 7, score scale 0 to 7",direction not given,clinical score,0.11
CCc1nn(C)c2nc(-c3ccc(C(=O)O)cc3)nc(NCc3ccc(F)cc3)c12,Cryptosporidium parvum,,HCT-8,"EC90, 3 h",reference: DMSO control,parasite number,122% and 117% and 104% and 118%
O=C(O)c1ccc(-n2cc(CNc3cc(Br)cc(C(F)(F)F)c3)c(-c3ccc(F)c(F)c3)n2)cc1,Staphylococcus aureus,,ATCC 25923,"24 h, preformed biofilm",,biofilm MIC,2 × planktonic MIC
CC1=NNC(=O)C1=NNc1ccc(S(N)(=O)=O)cc1,Saccharomyces cerevisiae,,,200 µg/mL,,glucose uptake,46.7%
OC(Cn1cncn1)(Cn1cncn1)c1ccc(F)cc1F,Candidozyma auris,inhibitor,277,24 h,,MIC,128 µg/mL
O=C1C(NCCc2ccc(O)cc2)=CC2=NCCc3c[nH]c1c32,Saccharomyces cerevisiae,"cell growth, liquid culture",BY4741,"100 µM, 24 h",,inhibition,62.5%
CC1(C)S[C@@H]2[C@H](NC(=O)Cc3ccccc3)C(=O)N2[C@H]1C(=O)O,Neisseria gonorrhoeae,broth microdilution,WHO F,1.5 h,,MIC,2 µg/mL
Cc1cc(OC(C)C)ccc1C(=O)C(C)(C)NC(=O)c1sccc1C,Botrytis cinerea,conidial germination,B05.10,"72 h, 20 °C",,EC50,0.4 µg/mL
CC(C)n1ncc2c(C(=O)NCC3(C)CNC3)cc(C3CC3)nc21,Enterovirus D68,,"US/IL/14-18952, neonatal Swiss Webster mice","intraperitoneal, 50 mg/kg daily, day 0 post infection, immediate treatment",,body weight,2.6 g and 2 g and 1.94 g and 2.26 g
CC1=NOC(=O)C1=NNc1ccc(S(N)(=O)=O)cc1,Saccharomyces cerevisiae,,,100 µg/mL,,glucose uptake,23.2%
Cc1ccc(NC(=O)N2Cc3[nH]cnc3C[C@H]2c2nc(-c3ccc4c(c3)OCO4)no2)cc1,Caenorhabditis elegans,,N2,25 µM,,median lifespan,21 days
CN[C@H](CC(C)C)C(=O)N[C@H]1C(=O)N[C@@H](CC(N)=O)C(=O)N[C@H]2C(=O)N[C@H]3C(=O)N[C@H](C(=O)N[C@H](C(=O)O)c4cc(O)cc(O)c4-c4cc3ccc4O)[C@H](O)c3ccc(c(Cl)c3)Oc3cc2cc(c3O[C@@H]2O[C@H](CO)[C@@H](O)[C@H](O)[C@H]2O[C@H]2C[C@](C)(N)[C@H](O)[C@H](C)O2)Oc2ccc(cc2Cl)[C@H]1O,Streptococcus pyogenes,,10 isolates,serum 25%,,MIC50,0.5 µg/mL
CC1=NN(c2ccc(C)cc2)C(=O)C1=NNc1ccc(S(N)(=O)=O)cc1,Saccharomyces cerevisiae,,,500 µg/mL,,glucose uptake,67.3%
CC(=O)NC[C@H]1CN(c2ccc(N3CCOCC3)c(F)c2)C(=O)O1,Streptococcus viridans,,10 clinical isolates,,,MIC50,0.5 µg/mL
CC1=NNC(=S)NC(=O)C1/N=N/c1ccc(S(N)(=O)=O)cc1 (stereo not drawn),Saccharomyces cerevisiae,,,10 µg/mL,,glucose uptake,43.796 ± 0.000876%
CC(C)[C@@H]1NC(=O)[C@@H](CCCN)NC(=O)[C@H]([C@@H](C)O)NC(=O)[C@@H](CCCN)NC(=O)[C@H](Cc2ccccc2)NC(=O)[C@@H](Cc2ccccc2)NC1=O,Naegleria fowleri,,,trophozoites,,IC90,> 16 µg/mL
CC1=NN(c2ccccn2)C(=O)C1=NNc1ccc(S(N)(=O)=O)cc1,Saccharomyces cerevisiae,,,50 µg/mL,,glucose uptake,7.3%
N=C(N)c1ccc(OCc2cc(COc3ccc(C(=N)N)cc3)cc(-c3ccccc3)c2)cc1,Escherichia coli,checkerboard,mcr-3 polymyxin-resistant,"concentration not given, added: rifampicin",,MIC of compound in combination,3.13 µg/mL

# Some of these lines once more:
Compound,organism,assay,test system,conditions,scale,endpoint,value
Cc1ccc(NC(=O)N2Cc3[nH]cnc3C[C@H]2c2nc(-c3ccc4c(c3)OCO4)no2)cc1,Caenorhabditis elegans,,N2,25 µM,,median lifespan,21 days
CN[C@H](CC(C)C)C(=O)N[C@H]1C(=O)N[C@@H](CC(N)=O)C(=O)N[C@H]2C(=O)N[C@H]3C(=O)N[C@H](C(=O)N[C@H](C(=O)O)c4cc(O)cc(O)c4-c4cc3ccc4O)[C@H](O)c3ccc(c(Cl)c3)Oc3cc2cc(c3O[C@@H]2O[C@H](CO)[C@@H](O)[C@H](O)[C@H]2O[C@H]2C[C@](C)(N)[C@H](O)[C@H](C)O2)Oc2ccc(cc2Cl)[C@H]1O,Streptococcus pyogenes,,10 isolates,serum 25%,,MIC50,0.5 µg/mL
